Results from different studies.
Every numbered part comes from another study and shows a few of its results, in no order. Changes are numbered by the printed parent chain.

Study 1
Molecule: PhoQ, residues 284 288 289 292 302 303 DDMDFR
Method: Sort-seq
Refers to: YFP reporter
Matrix: E. coli
Setting: PhoQ-PhoP variant library
With: 10 µM Mg2+
Baseline: high Mg2+ state
Direction: higher = stronger signaling
| target | fold induction |
| --- | --- |
| PhoP, residues 12 14 15 18 19 SFCSL (Escherichia coli, UniProt P23836) | 0.832 |
| PhoP, residues 12 14 15 18 19 AYFRS (Escherichia coli, UniProt P23836) | 0.763 |
| PhoP, residues 12 14 15 18 19 HHYTI (Escherichia coli, UniProt P23836) | 0.679 |

Study 2
Target: Interferon regulatory factor 7, full length, phosphomimetic (IRF7, Homo sapiens, UniProt Q92985, residues 1-503, S471D/S472D/S475D/S476D/S477D/S483D/S484D/S487D)
Method: protein-binding microarray
Molecule type: double-stranded DNA, one strand shown
Matrix: in vitro
Concentration: 2200 nM top
Setting: 60-bp whole probe
With: salmon DNA 0.4 mg/ml
Baseline: random background probes
Direction: higher = stronger binding
Shared flanks, not repeated: GCCTAGCAC … GTCTTGATTCGCTTGACGCTGCTG
Construct (chain): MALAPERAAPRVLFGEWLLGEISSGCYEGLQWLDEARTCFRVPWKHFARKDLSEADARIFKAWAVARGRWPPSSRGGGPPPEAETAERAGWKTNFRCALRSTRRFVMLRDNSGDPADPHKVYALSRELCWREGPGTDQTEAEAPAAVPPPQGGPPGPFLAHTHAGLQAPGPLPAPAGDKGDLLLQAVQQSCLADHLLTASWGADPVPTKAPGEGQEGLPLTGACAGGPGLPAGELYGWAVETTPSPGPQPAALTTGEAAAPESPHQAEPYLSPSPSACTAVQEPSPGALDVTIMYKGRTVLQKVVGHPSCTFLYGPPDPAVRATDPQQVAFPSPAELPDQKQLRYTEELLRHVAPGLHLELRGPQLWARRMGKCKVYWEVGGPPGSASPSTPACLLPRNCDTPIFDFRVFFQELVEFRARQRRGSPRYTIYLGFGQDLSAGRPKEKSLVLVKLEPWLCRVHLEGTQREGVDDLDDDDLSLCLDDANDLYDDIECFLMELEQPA
| Sequence | fitted relative affinity |
| --- | --- |
| AGAATTTTCATTAACTGTTAGTGCTAG | 0.108 z-score |
| GCTTTTATCCCTGACAGAAGGTGCTAG | 0.832 z-score |
| CTGATTTTGCTTTCATTTATGTGCTAG | 3.44 z-score |
| GCTTTCCCCTTGGACTCTTTGTGCTAG | 4.4 z-score |
| TGAGGTTTCGGGTTTCGGTTAGTGCTA | 10.7 z-score |
| TAAGAACTGAGTTTCGATTAGTGCTAG | 3.46 z-score |
| CTCAGTTTATTTATTTTTACGTGCTAG | 0.816 z-score |
| TTAGGTTTCGAAACTGGGTTAGTGCTA | 3.28 z-score |
| CCCCCTTTTATATTGTAAGCGTGCTAG | 0.504 z-score |
| TTAGGTTTCGACAATCGGTTAGTGCTA | 2.14 z-score |
| TTAGTTTTCGGTTCCGGTTAGTGCTAG | 11.3 z-score |
| AACGGACTGGGGTTTCGGGACGTGCTA | 0.772 z-score |
| CCCTGTTTCCATCTCTCAAAGTGCTAG | 4.13 z-score |
| GTGATGTGAGGGGAGAGGGAGTGCTAG | -0.278 z-score |
| GACGGTCTCAGTCTCGGGACGTGCTAG | -0.0887 z-score |
| GAGGATTTCAGACTGGAGACGTGCTAG | -0.228 z-score |
| TTAGGTAGCGGGACTGGGTTAGTGCTA | -0.837 z-score |
| GAAGATTTCAGTTTCGAGACGTGCTAG | 5.42 z-score |
| TTAGGACTGGGCCTGGGTTAGTGCTAG | -1.05 z-score |
| TCATCTTTCTACATAGAACTGTGCTAG | 1.83 z-score |
| TTAGGACTCCTTTTCCTTTAGTGCTAG | 1.53 z-score |
| TCAAAGATTCCTCTCACACTGTGCTAG | 0.565 z-score |
| TTAGATCTCAGAATCGATTAGTGCTAG | 0.0531 z-score |

Study 3
Target: CCNE1, cyclin fold, Cln2 fusion (human)
Method: yeast growth competition, sequencing
Matrix: yeast
Setting: weak parent motif
Baseline: not given
Direction: higher = stronger binding
Starting sequence: MICAL3 docking peptide (human); LQLRRQLSFSEDS
| Variant | normalised enrichment score |
| --- | --- |
| LQLRRKLSFSEDS [Q6K] | 2.54 |
| LQARRQLSFSEDS [L3A] | 5.37 |
| LQLVRQLSFSEDS [R4V] | 1.38 |
| LQLRRQLSFSEQS [D12Q] | 0.743 |
| LQLRRQLSFSEPS [D12P] | 0.979 |
| LRLRRQLSFSEDS [Q2R] | 1.04 |
| LQLRMQLSFSEDS [R5M] | 0.166 |
| LQLRRQLIFSEDS [S8I] | 0.801 |
| LQKRRQLSFSEDS [L3K] | 0.0853 |
| LQLRRQLSFGEDS [S10G] | 1.57 |
| LQLNRQLSFSEDS [R4N] | 0.37 |
| LQRRRQLSFSEDS [L3R] | 0.256 |
| LQLRRQESFSEDS [L7E] | -0.0293 |
| LQLRDQLSFSEDS [R5D] | 0.00118 |
| LQLRRQLSFSEYS [D12Y] | 0.722 |
| LQLRVQLSFSEDS [R5V] | 0.176 |
| LQLRRQLSFPEDS [S10P] | 0.848 |
| LQLRRQPSFSEDS [L7P] | -0.0636 |
| LQLRRNLSFSEDS [Q6N] | 0.255 |
| LQLRRQLSFCEDS [S10C] | 0.854 |

Study 4
Target: Sal-like protein 4, full length isoform A (SALL4, Homo sapiens, UniProt Q9UJQ4, residues 1-1053)
Chain of UniProt Q9UJQ4 (whole entry, looked up): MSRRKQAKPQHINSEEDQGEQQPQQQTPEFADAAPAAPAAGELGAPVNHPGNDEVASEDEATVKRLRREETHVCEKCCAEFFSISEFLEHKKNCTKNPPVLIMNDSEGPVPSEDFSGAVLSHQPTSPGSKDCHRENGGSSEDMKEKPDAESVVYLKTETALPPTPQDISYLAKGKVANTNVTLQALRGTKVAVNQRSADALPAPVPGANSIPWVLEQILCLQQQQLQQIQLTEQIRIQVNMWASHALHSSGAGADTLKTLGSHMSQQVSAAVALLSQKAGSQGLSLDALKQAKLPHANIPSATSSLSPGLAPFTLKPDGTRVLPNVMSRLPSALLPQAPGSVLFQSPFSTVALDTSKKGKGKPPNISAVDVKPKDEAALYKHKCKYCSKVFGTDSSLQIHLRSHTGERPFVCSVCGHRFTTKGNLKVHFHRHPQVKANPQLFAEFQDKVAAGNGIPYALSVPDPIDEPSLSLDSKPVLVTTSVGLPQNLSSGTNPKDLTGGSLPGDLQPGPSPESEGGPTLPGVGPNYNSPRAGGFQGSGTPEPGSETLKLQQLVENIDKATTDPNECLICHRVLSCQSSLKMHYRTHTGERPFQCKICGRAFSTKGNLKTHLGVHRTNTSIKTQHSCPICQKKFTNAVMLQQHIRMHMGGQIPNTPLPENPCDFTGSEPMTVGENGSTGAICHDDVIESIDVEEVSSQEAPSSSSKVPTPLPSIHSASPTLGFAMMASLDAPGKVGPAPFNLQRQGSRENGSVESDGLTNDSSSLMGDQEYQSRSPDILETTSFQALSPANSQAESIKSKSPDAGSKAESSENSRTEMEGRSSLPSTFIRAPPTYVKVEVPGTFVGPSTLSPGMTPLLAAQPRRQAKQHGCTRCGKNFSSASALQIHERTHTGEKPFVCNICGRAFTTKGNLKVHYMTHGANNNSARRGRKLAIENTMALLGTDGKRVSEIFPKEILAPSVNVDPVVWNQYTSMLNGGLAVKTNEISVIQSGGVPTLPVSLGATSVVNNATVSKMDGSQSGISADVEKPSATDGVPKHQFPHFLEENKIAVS
Method: universal PBM
Molecule type: double-stranded DNA, one strand shown
Matrix: in vitro
Concentration: 600 nM
Setting: 8-mer, flanks averaged, mean of replicates
Direction: higher = stronger binding
| Sequence | E-score |
| --- | --- |
| GACGGGGA | -0.242 |
| ACTTGCGA | -0.00603 |
| ATTCGCAC | -0.206 |
| GGGGTTAC | -0.321 |
| ATTGGTGG | 0.17 |
| CCAGCCCG | -0.388 |
| ACGGTAGT | -0.0208 |
| ATGAGTCG | 0.0577 |
| ATGTAGTG | 0.0907 |
| AAATGTGA | 0.247 |
| AACACGTG | 0.0532 |
| ATTACGCG | 0.0825 |
| TTCGCAAA | 0.196 |
| AAGCGGCG | -0.305 |
| CCGAATTA | 0.138 |
| AGAACCCG | -0.245 |
| GACTCTCC | -0.104 |
| CATACTCA | 0.182 |

Study 5
Target: ABI1, truncated, D143A, DHFR fusion (Arabidopsis thaliana)
Method: DHFR PCA, deep sequencing
Matrix: yeast
Setting: methotrexate growth selection, single substitutions
With: (+)-ABA 4.8 µM
Baseline: wild-type fitted maximum
Direction: higher = stronger binding
Starting sequence: PYL1, truncated, DHFR fusion (Arabidopsis thaliana); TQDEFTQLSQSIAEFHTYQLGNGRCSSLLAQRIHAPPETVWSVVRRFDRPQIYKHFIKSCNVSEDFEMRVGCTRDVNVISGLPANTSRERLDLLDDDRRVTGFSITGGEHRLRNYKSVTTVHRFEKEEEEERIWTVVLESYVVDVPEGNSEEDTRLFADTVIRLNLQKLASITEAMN
| Variant | relative binding score |
| --- | --- |
| E14K | 53.7% |
| M176G | 67.8% |
| T119E | -2.47% |
| L82D | -7.4% |
| D97S | 71% |
| L93Q | 49.5% |
| E174Y | 14.2% |
| A158Q | 1.44% |
| I79D | -2.99% |
| Q51K | -10.8% |
| L169S | -1.78% |
| Q51L | 1.53% |
| I172D | -3.72% |

Study 6
Target: Histone acetyltransferase KAT6A, both winged helices, GST fusion (KAT6A, Homo sapiens, UniProt Q92794, residues 1-181)
Method: protein binding microarray
Molecule type: double-stranded DNA, one strand shown
Matrix: in vitro
Concentration: not given
Setting: 8-mer, flanks averaged, mean of 2 arrays, mostly near background
Baseline: not given
Direction: higher = stronger binding
Residues (chain): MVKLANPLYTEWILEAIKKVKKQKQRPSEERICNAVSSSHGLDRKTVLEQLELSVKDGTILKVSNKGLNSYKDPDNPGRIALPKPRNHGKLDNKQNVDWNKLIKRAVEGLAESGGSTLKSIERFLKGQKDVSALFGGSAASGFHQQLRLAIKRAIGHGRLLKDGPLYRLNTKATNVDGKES
| Sequence | E-score |
| --- | --- |
| CTAGCTGC | -0.0775 |
| AGTCTTGG | -0.0559 |
| AGTCGACC | 0.0601 |
| ACTATTGC | 0.0788 |
| ACCCAGAT | -0.238 |
| CAGCCGAG | -0.00415 |
| AAAGAATA | -0.156 |
| AAAGGAGG | -0.217 |
| ACTATTCC | 0.0642 |
| ACTTCTAG | -0.0461 |
| AGTGTTCG | -0.0318 |
| ACATCAGA | -0.207 |
| ATTCGCAC | 0.065 |
| AAGGGAAA | -0.139 |
| ATTAAGTA | -0.106 |
| CTCCTGTC | -0.228 |
| TATTCCGA | 0.0694 |
| GAACTGCA | -0.0631 |
| AAACGTCA | 0.0628 |
| ACGAAAGA | -0.0995 |

For quick reference, copied from above (study 6):
| Sequence | E-score |
| --- | --- |
| GAACTGCA | -0.0631 |
| ACTATTGC | 0.0788 |
| ACATCAGA | -0.207 |
| ACGAAAGA | -0.0995 |
| CAGCCGAG | -0.00415 |
| AGTCGACC | 0.0601 |
| CTCCTGTC | -0.228 |
| ACTATTCC | 0.0642 |
| ACTTCTAG | -0.0461 |
| AGTCTTGG | -0.0559 |
| TATTCCGA | 0.0694 |
| AAAGAATA | -0.156 |
| ATTAAGTA | -0.106 |
| AAAGGAGG | -0.217 |
| AGTGTTCG | -0.0318 |
